Measured values of several laboratories.
Compare with care: the assays were run in different laboratories. Converted amounts (≈) assume the structure as drawn.
Organism: Cryptococcus neoformans

Compound = CCCCCCCCCCCCCCCC(=O)NCC(=O)N(CC(=O)N(CCCCN)CC(=O)N(CCN)CC(=O)N(CC(N)=O)C1CCCCC1)C1CCCCC1; assay = broth microdilution; conditions = 72 h, 35 °C; endpoint = MIC; result = 3.13 µg/mL (≈ 3.82 µM)
Compound = CCCCS(=O)(=O)c1cccc(O)c(=O)c1O; assay = microbial growth, broth dilution; conditions = 13 h; endpoint = MIC80; result = 50 µM (≈ 12.9 µg/mL)
Compound = CCCCCCCCCC1CC2CCC3CC(CCCCCCCCC)NC(=N1)N23 (stereo not shown); assay = fungal growth; system = ATCC 90113; endpoint = MFC; result = 2.99 µM (≈ 1.25 µg/mL)
Compound = CCCCCCCCCCCCCCCCC1CC(=O)NCCCN(C)CCCCN(C)CCCN1C (stereo not shown); assay = microbial growth; system = ATCC90113; endpoint = IC50; result = 1 µg/mL
Compound = CC(C)S(=O)(=O)c1cccc(O)c(=O)c1O; assay = microbial growth, broth dilution; conditions = 13 h; endpoint = MIC80; result = 50 µM (≈ 12.2 µg/mL)
Compound = C[C@@H](c1ccn(Cc2ccc(OC(F)(F)F)cc2)n1)[C@](O)(Cn1cnnn1)c1ccc(F)cc1F; assay = growth, broth microdilution; system = H99; conditions = 72 h, 30 °C, ≥50% inhibition; endpoint = MIC; result = < 0.008 µg/mL
Compound = CCCCCC1CC2CCCC3CC(C)N=C(N1)N32 (stereo not shown); assay = fungal growth; system = ATCC 90113; endpoint = MFC; result = 3.96 µM (≈ 1.04 µg/mL)
Compound = CC(C)Sc1cccc(O)c(=O)c1O; assay = microbial growth, broth dilution; conditions = 13 h; endpoint = MIC80; result = 2.6 µM (≈ 0.552 µg/mL)
Compound = CN(Cc1cc(C2CC2)on1)C(=O)c1cccc(-c2ccc3c(c2)CCO3)c1; system = H99; conditions = with: rapamycin; endpoint = FIC index; result = 0.5
Compound = C[C@@H](c1ccn(Cc2ccc(C#N)cc2)n1)[C@](O)(Cn1cnnn1)c1ccc(F)cc1F; assay = growth, broth microdilution; system = H99; conditions = 72 h, 30 °C, ≥50% inhibition; endpoint = MIC; result = 1 µg/mL (≈ 2.3 µM)
Compound = CS(=O)(=O)c1cccc(O)c(=O)c1O; assay = microbial growth, broth dilution; conditions = 13 h; endpoint = MIC80; result = 50 µM (≈ 10.8 µg/mL)
Compound = C/C=C/CNC(=N)NCCCCCCCCN1CCCc2ccc(C)cc2COc2ccccc2CNC(=N)NC1=O; assay = microbial growth, broth dilution; conditions = 24 h; endpoint = MIC90; result = 4 µg/mL (≈ 6.95 µM)
Compound = C[C@@H](c1ccn(Cc2ccc(F)cc2F)n1)[C@](O)(Cn1cnnn1)c1ccc(F)cc1F; assay = growth, broth microdilution; system = H99; conditions = 72 h, 30 °C, ≥50% inhibition; endpoint = MIC; result = 0.125 µg/mL (≈ 0.28 µM)
Compound = O=c1c(O)cccc(S(=O)(=O)c2ccccc2)c1O; assay = microbial growth, broth dilution; conditions = 13 h; endpoint = MIC80; result = 50 µM (≈ 13.9 µg/mL)
Compound = CCn1ccc([C@H](C)[C@](O)(Cn2cnnn2)c2ccc(F)cc2F)n1; assay = growth, broth microdilution; system = H99; conditions = 72 h, 30 °C, ≥50% inhibition; endpoint = MIC; result = 4 µg/mL (≈ 11.5 µM)
Compound = C/C=C/CNC(=N)NCCCCCCCCN1CCCCCCOc2ccccc2CNC(=N)NC1=O; assay = microbial growth, broth dilution; conditions = 24 h; endpoint = MIC90; result = 6.25 µg/mL (≈ 12.2 µM)
Compound = C[C@@H](c1ccn(Cc2ccc(F)cc2)n1)[C@](O)(Cn1cnnn1)c1ccc(F)cc1F; assay = growth, broth microdilution; system = H99; conditions = 72 h, 30 °C, ≥50% inhibition; endpoint = MIC; result = 0.125 µg/mL (≈ 0.292 µM)
Compound = C/C=C/CNC(=N)NCCCCCCCCN1CCCc2ccc(OC(F)(F)F)cc2COc2ccccc2CNC(=N)NC1=O; assay = microbial growth, broth dilution; conditions = 24 h; endpoint = MIC90; result = 4 µg/mL (≈ 6.19 µM)
Compound = CCCCCn1ccc([C@H](C)[C@](O)(Cn2cnnn2)c2ccc(F)cc2F)n1; assay = growth, broth microdilution; system = H99; conditions = 72 h, 30 °C, ≥50% inhibition; endpoint = MIC; result = 0.25 µg/mL (≈ 0.64 µM)
Compound = CCCCCCS(=O)(=O)c1ccc(S(=O)(=O)CCCCCC)c(O)c(=O)c1O; assay = microbial growth, broth dilution; conditions = 13 h; endpoint = MIC80; result = 50 µM (≈ 21.7 µg/mL)
Compound = CCCn1ccc([C@H](C)[C@](O)(Cn2cnnn2)c2ccc(F)cc2F)n1; assay = growth, broth microdilution; system = H99; conditions = 72 h, 30 °C, ≥50% inhibition; endpoint = MIC; result = 2 µg/mL (≈ 5.52 µM)
Compound = CCCCCCCCCC1CC2CCCC3CC(CCCCCCCCC)NC(=N1)N23 (stereo not shown); assay = microbial growth; system = ATCC90113; endpoint = IC50; result = 2.39 µM
